Values quoted from earlier work, collected from citations in different studies.
Numbered parts are unrelated; values within a part may stem from several laboratories. ± marks the error that the study gave. Converted amounts (≈) assume the structure as drawn.

Sample 1
Target: HLA class I histocompatibility antigen, A alpha chain, allele A*26:03 (Homo sapiens, UniProt P04439)
Effect on: peptide-MHC binding
Form: peptide
Quantity: IC50
QGKQHLHSL: > 20 µM
LFNTVAVLY: 20 µM
DFGYATMAK: > 20 µM
IQRRGAQFQ: > 20 µM
QWSPGPGRL: > 20 µM
RIGGVLIFR: > 20 µM
YWMGGTTYF: > 20 µM
DWSGYSGSF: > 20 µM
ALYSYASAK: 0.495 µM
NQECWDSVF: > 20 µM
KYFDDVTAF: > 20 µM
VLYCVHQHI: > 20 µM
RVYNNTARY: > 20 µM
MKWMMAMKY: > 20 µM
LYNTIATLY: > 20 µM
THYSGNIVH: > 20 µM
ATADLELAY: > 20 µM
TVIRFWHAM: 0.001 µM
QLKQRDALF: > 20 µM
ASFKAGKLR: > 20 µM
EIIWPDRQM: 0.222 µM
YHRFGLYRL: > 20 µM
SIPQDGAKM: 0.501 µM
VYSFDESSF: 1.42 µM
VFMDNAFKK: > 20 µM

Other studies, line by line
Tubulin alpha-1B chain/TUBB2B: Tubulin alpha-1B chain/TUBB2B (Bos taurus, UniProt P81947+Q6B856)
Chain of UniProt Q6B856 (whole entry, looked up): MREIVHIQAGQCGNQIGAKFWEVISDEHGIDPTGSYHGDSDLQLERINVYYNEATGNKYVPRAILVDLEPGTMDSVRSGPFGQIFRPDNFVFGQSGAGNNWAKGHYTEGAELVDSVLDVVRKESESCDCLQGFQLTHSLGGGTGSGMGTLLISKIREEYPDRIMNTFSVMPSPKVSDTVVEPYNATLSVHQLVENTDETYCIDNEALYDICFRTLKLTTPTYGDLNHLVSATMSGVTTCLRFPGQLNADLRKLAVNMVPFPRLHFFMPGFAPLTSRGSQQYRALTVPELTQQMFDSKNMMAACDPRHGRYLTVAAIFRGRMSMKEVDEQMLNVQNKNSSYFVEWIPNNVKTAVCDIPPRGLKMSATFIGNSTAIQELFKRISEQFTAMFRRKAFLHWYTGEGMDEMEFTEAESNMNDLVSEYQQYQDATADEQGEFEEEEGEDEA
Chain of UniProt P81947 (whole entry, looked up): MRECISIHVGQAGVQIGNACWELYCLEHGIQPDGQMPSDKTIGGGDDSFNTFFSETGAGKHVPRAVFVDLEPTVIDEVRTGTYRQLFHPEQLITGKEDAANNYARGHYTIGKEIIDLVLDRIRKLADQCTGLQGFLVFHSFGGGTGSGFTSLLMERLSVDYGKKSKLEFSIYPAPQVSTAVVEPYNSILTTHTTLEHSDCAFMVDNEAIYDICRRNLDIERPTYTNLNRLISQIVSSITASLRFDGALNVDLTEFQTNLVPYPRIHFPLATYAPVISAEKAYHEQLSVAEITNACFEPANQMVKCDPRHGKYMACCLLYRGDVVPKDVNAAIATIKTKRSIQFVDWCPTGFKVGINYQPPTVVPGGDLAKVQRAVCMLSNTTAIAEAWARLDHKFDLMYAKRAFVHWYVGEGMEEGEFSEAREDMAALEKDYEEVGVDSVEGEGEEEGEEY
CC[C@H](C)CCCCC(=O)N[C@@H](CCN)C(=O)N[C@H](C(=O)N[C@@H](CCN)C(=O)N[C@H]1CCNC(=O)[C@H]([C@@H](C)O)NC(=O)[C@H](CCN)NC(=O)[C@H](CCN)NC(=O)[C@H](CC(C)C)NC(=O)[C@@H](CC(C)C)NC(=O)[C@H](CCN)NC1=O)[C@@H](C)O
nephrotoxicity incidence (patients; 3 to 5 mg/kg/day (ideal body weight)): 63.2%

Nc1cccc2c1C(=O)N(C1CCC(=O)NC1=O)C2=O (centres unmarked)
MTD (human, relapsed/refractory multiple myeloma; alternate-day dosing): 5 mg

COc1ccc(C(=O)Nc2ccccc2CCC2CCCCN2C)cc1 (centres unmarked)
AUC (human, plasma; dose not given, range of reported values): 0.36 to 0.965 µM·h

COc1ccc(C[C@H]2NC[C@H](O)[C@H]2OC(C)=O)cc1
IC50 (Entamoeba): 0.7 µM

CCCCCCCCCCCCCC(=O)O[C@@H]1[C@@H](C)[C@@]2(O)[C@@H](C=C(CO)C[C@]3(O)C(=O)C(C)=C[C@@H]23)[C@@H]2C(C)(C)[C@]12OC(C)=O
IC50 (phorbol ester receptor; radioligand binding): 0.00079 µM

CC(O)CN1CCN(CC(=O)[O-])CCN(CC(=O)[O-])CCN(CC(=O)[O-])CC1.[Gd+3] (centres unmarked)
relaxivity r1 (human plasma; 310 K, 3 T): 3.7 mM⁻¹ s⁻¹

CCCCCOc1ccc(-c2ccc(-c3ccc(C(=O)N[C@H]4C[C@@H](O)[C@@H](O)NC(=O)[C@@H]5[C@@H](O)[C@@H](C)CN5C(=O)[C@H]([C@@H](C)O)NC(=O)[C@H]([C@H](O)[C@@H](O)c5ccc(O)cc5)NC(=O)[C@@H]5C[C@@H](O)CN5C(=O)[C@H]([C@@H](C)O)NC4=O)cc3)cc2)cc1
AUC(0-inf) (moderate hepatic impairment patients; 50 mg single dose): 68600 ± 14500 ng·h/mL

C/C=C1/CN2CC[C@]34C(=C(C(=O)OC)[C@H]1C[C@H]23)Nc1ccc(I)cc14
IC50 (kappa opioid receptor; adenylyl cyclase inhibition): 0.0057 µM

NCC[C@H](O)C(=O)N[C@@H]1C[C@H](N)[C@@H](O[C@H]2O[C@H](CN)[C@@H](O)[C@H](O)[C@H]2O)[C@H](O)[C@H]1O[C@H]1O[C@H](CO)[C@@H](O)[C@H](N)[C@H]1O
MIC (Escherichia coli; AR0346 colistin resistant): > 64 µg/mL

C=C(C)[C@@H]1CCC(C)=C[C@H]1c1c(O)cc(CCCCC)cc1O
TD50 (rat, male; intraperitoneal, minimal motor impairment): > 500 mg/kg

COCCn1c(C)c(C)sc1=NC(=O)C1C(C)(C)C1(C)C
EC50 (cannabinoid receptor CB1; agonist): > 1 µM

COc1cc2c(Oc3ccc4[nH]c(C)cc4c3F)ccnc2cc1OCC1(N)CC1
NOAEL (Beagle dog; oral): 0.12 mg/kg

C=CC(=O)Nc1cc(Nc2nccc(-c3cn(C)c4ccccc34)n2)c(OC)cc1N(C)CCN(C)C
median progression-free survival (human, NSCLC patients; 80 mg): 3.6 months

COc1ccc2c(c1)[nH]c1c(C)nccc12
IC50 (human CLK3; kinase activity, inhibitor): > 10 µM

CN1CCN(C2=Nc3ccccc3Oc3ccc(Cl)cc32)CC1
AUC (human, plasma; dose not given, range of reported values): 0.034 to 0.429 µM·h

CN(CC(C)(C)C)N=O
Ames test result (Salmonella typhimurium; TA100; concentration not given, with: Aroclor-induced rat liver S9): positive

C=C[C@@H]1C[C@]1(NC(=O)[C@@H]1C[C@@H]2CN1C(=O)[C@H](C(C)(C)C)NC(=O)O[C@@H]1C[C@H]1CCCCCc1nc3ccc(OC)cc3nc1O2)C(=O)NS(=O)(=O)C1CC1
IC50 (CYP2C19; human liver microsomes): > 100 µM

CC(C)N(N=O)C(C)C
Ames mutagenicity (Salmonella typhimurium; TA100; with: rat liver S9): positive

COc1ccc2c(c1N)CCCC=C2c1cc(OC)c(OC)c(OC)c1
IC50 (Tubulin alpha-1B chain/TUBB2B; tubulin polymerization, inhibitor): 1.3 ± 0.11 µM

C/C=C1/CN2CC[C@]34C(=C(C(=O)OC)[C@H]1C[C@H]23)Nc1ccccc14
Ki (kappa opioid receptor; radioligand binding; with: [3H]CI-977): 0.2 µM

Cc1cccc(-c2[nH]c(CNc3ccccc3F)nc2-c2ccc3ncnn3c2)n1
NOAEL (rat, male; 13 weeks, repeated dose): 20 mg/kg/day

COc1ccc2c(c1O)CCCC=C2c1cc(OC)c(OC)c(OC)c1
IC50 (Tubulin alpha-1B chain/TUBB2B; tubulin polymerization, inhibitor): 0.85 ± 0.02 µM

CCCC(CCC)C(=O)O
TD50 (motor impairment; mouse; intraperitoneal): 398 mg/kg

CCN1CCN(C(=O)N[C@@H](C(=O)N[C@@H]2C(=O)N3[C@@H]2SC(C)(C)[C@@H]3C(=O)O)c2ccccc2)C(=O)C1=O
MIC (Escherichia coli; AR0346 colistin resistant): 8 µg/mL (≈ 15.5 µM)

Nc1ccn([C@@H]2O[C@H](CO)[C@@H](O)C2(F)F)c(=O)n1
6-month overall survival rate (metastatic pancreatic cancer patients; dose not given): 46%

Excerpt of the above (sample 1):
QGKQHLHSL: > 20 µM
LFNTVAVLY: 20 µM
DFGYATMAK: > 20 µM
IQRRGAQFQ: > 20 µM
